{"data": "Published values collected from several papers", "note": "Parts stem from different laboratories: compare values within a part only. Changes are numbered by the printed parent chain."}
{"data": "Sample 1", "target": "RING finger protein unkempt homolog, zinc fingers 1-6, GST-SBP tag (UNK, Homo sapiens, UniProt Q9C0B0, residues 30-357)", "technique": "RNA Bind-n-Seq", "form": "RNA", "medium": "in vitro", "tested at": "not given", "notes": "RNA with constant flanks, human and mouse sites, ends assumed", "relative to": "input RNA pool", "direction": "higher = stronger binding", "UniProt Q9C0B0, sequence (30-357, looked up)": "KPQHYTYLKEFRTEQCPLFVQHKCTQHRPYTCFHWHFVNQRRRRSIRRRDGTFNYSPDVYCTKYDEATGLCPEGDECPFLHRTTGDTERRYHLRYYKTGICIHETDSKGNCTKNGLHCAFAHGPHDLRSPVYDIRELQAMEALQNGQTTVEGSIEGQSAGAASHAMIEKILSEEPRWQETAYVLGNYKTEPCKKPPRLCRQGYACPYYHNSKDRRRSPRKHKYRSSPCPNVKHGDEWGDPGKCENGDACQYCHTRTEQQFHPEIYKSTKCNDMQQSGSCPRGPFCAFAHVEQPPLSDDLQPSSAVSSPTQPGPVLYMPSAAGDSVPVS"}
{"Sequence": "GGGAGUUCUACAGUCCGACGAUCUUGGAUGGCCUGUCAUGUAUUCUCAACUUUCUGAAGACCAUGGACUAUGAGACCUCUGAGUCUCGGAUACACACCUCCCUCAUUGGCUGUAUAAAGGCACUAAUGAACAACUCUCAAGGCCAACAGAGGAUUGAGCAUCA", "bound/input enrichment": "0.205 ratio"}
{"Sequence": "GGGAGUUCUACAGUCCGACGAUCAUAUACUUUUAUCAUUUAAAUGUCUUAUUUGCUGCUAUGAAUAGGAAAUAACAUUUUGUAUAGCAGGCUCUGUUUUACCCUAACAUUAAAAAAUUUCACUGAUCUUUCUUUCAUUAACAGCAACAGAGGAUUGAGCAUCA", "bound/input enrichment": "2.42 ratio"}
{"Sequence": "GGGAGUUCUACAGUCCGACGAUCGGCAUCGCGGGCUGUGGAACUCUAUUAGUAUUGGAUCAAAAUGAAUCUGGACUUCAGAUUUUUAGAAGCUUUGACUGGAAUGACGGCUUGUUUGACGUUACCUGGAGUGAAAACAAUGAGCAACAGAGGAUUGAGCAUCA", "bound/input enrichment": "10.9 ratio"}
{"Sequence": "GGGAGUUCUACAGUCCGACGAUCAUGGGUGGAUUAUUUUCUCGAUGGAGGGCAAAACCUUCAACAGUAGAAGUUCUAGAAAAUAUAGAUAAGGAAAUUCAAGCAUUGGAAGAAUUUAGAGAAAAAAAUCAGAGAUUGCAAAAACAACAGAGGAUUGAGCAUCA", "bound/input enrichment": "7.58 ratio"}
{"Sequence": "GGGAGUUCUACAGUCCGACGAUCUUUUUUUUUCCCGGGGUGGGGGGUGUUCUUUGGGGGAAUUUUUUUUUUAAUGGAAGCUUCUAGCAAGCCCUAUGCCCCACCCCAAUCAACCUCUUUGCUUUCUUCUUUAAAAAAAGGAAACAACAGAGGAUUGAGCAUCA", "bound/input enrichment": "0.255 ratio"}
{"Sequence": "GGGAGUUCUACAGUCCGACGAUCUCAGGGCUUAAGACUACAUUGUUAGGCUUGGAUGAGCAAUCUGUUAAAGAAGUAAGAAGCACUCGGGCAGCGUGUACUGGACUUUACUGCAGCUGCUUUCAACCAGCUCCCUGUCACAGCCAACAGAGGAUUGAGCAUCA", "bound/input enrichment": "0.261 ratio"}
{"data": "Sample 2", "target": "CCNE1, cyclin fold, Cln2 fusion (human)", "technique": "yeast growth competition, sequencing", "medium": "yeast", "notes": "strong parent motif", "relative to": "not given", "direction": "higher = stronger binding", "starting sequence": "BRCA2 docking peptide (human); PSIKRNLLNEFDR; partner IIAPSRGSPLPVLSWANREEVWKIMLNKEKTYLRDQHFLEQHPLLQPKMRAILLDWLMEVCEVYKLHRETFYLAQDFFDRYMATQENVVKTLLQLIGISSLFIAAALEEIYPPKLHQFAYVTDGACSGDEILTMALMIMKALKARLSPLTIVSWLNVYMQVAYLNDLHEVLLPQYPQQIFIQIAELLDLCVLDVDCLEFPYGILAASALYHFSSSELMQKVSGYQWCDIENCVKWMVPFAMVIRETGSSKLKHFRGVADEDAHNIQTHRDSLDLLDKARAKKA"}
{"Variant": "D12N", "normalised enrichment score": 1.8}
{"Variant": "P1F", "normalised enrichment score": 1.16}
{"Variant": "E10D", "normalised enrichment score": 3.3}
{"Variant": "N9I", "normalised enrichment score": 1.91}
{"Variant": "N6D", "normalised enrichment score": 0.863}
{"Variant": "R5E", "normalised enrichment score": -0.485}
{"data": "Sample 3", "target": "ABI1, truncated, D143A, DHFR fusion (Arabidopsis thaliana)", "technique": "DHFR PCA, deep sequencing", "medium": "yeast", "notes": "methotrexate growth selection, single substitutions", "together with": "(+)-ABA 17 µM", "relative to": "wild-type fitted maximum", "direction": "higher = stronger binding", "starting sequence": "PYL1, truncated, DHFR fusion (Arabidopsis thaliana); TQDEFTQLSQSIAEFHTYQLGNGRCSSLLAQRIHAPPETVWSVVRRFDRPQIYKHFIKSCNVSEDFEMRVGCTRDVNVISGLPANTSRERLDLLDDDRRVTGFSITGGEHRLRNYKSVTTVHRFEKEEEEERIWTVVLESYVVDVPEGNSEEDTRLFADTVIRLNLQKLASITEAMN"}
{"Variant": "V76P", "relative binding score": "-6.89%"}
{"Variant": "E130I", "relative binding score": "83.2%"}
{"Variant": "R88H", "relative binding score": "88.8%"}
{"Variant": "V137C", "relative binding score": "36.8%"}
{"Variant": "V76F", "relative binding score": "-2.16%"}
{"Variant": "N114Y", "relative binding score": "11.6%"}
{"data": "Single results of other studies"}
{"Molecule": "PhoQ, residues 284 288 289 292 302 303 SQSLSM", "target": "PhoP, residues 12 14 15 18 19 NQAHL (Escherichia coli, UniProt P23836)", "test": "Sort-seq, refers to: YFP reporter", "test system": "E. coli", "setting": "PhoQ-PhoP variant library, together with: 10 µM Mg2+", "scale": "relative to: high Mg2+ state, higher = stronger signaling", "measurement": "fold induction", "value": 0.735}
{"note": "Excerpt of the above (sample 3):"}
{"Variant": "E130I", "relative binding score": "83.2%"}
